Published values gathered from unrelated publications.
Numbered parts are unrelated; each lists some results of a single study.
UniProt P62344, sequence (whole entry, looked up): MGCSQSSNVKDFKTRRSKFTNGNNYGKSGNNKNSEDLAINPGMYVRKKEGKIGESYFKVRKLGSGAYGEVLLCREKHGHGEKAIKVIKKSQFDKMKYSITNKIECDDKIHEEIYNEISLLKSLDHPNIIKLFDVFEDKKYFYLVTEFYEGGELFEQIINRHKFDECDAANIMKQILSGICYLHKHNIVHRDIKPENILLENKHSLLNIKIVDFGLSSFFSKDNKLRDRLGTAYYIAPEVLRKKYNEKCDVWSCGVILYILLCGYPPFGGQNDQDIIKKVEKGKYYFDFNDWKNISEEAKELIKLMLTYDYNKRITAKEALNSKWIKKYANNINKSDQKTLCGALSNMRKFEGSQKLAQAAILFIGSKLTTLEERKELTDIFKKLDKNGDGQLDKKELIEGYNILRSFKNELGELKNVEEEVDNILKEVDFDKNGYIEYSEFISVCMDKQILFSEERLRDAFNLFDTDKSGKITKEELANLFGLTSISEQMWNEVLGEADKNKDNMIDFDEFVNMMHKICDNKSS
UniProt Q16288, sequence (whole entry, looked up): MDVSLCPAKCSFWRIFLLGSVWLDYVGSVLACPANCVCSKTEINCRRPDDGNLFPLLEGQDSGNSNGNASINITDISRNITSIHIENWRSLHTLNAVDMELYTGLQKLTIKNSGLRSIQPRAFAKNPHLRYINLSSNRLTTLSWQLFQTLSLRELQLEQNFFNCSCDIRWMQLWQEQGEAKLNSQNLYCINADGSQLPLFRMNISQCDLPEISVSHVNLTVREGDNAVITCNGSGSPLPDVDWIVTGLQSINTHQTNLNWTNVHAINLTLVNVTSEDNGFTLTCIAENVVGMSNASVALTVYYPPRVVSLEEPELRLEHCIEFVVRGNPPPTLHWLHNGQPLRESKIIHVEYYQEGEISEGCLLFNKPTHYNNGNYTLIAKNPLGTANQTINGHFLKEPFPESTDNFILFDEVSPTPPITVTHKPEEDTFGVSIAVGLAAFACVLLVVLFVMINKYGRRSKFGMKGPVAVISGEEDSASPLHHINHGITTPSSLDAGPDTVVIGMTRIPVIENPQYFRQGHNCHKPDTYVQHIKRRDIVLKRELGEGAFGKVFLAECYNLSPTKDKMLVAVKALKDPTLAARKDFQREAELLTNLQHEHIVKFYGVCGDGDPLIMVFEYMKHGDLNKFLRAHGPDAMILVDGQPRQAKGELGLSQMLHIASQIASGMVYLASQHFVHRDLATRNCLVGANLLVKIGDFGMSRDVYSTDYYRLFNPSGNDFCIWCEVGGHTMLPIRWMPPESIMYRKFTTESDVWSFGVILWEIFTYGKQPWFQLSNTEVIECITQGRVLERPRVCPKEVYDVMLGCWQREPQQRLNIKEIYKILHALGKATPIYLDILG
UniProt P14616, sequence (whole entry, looked up): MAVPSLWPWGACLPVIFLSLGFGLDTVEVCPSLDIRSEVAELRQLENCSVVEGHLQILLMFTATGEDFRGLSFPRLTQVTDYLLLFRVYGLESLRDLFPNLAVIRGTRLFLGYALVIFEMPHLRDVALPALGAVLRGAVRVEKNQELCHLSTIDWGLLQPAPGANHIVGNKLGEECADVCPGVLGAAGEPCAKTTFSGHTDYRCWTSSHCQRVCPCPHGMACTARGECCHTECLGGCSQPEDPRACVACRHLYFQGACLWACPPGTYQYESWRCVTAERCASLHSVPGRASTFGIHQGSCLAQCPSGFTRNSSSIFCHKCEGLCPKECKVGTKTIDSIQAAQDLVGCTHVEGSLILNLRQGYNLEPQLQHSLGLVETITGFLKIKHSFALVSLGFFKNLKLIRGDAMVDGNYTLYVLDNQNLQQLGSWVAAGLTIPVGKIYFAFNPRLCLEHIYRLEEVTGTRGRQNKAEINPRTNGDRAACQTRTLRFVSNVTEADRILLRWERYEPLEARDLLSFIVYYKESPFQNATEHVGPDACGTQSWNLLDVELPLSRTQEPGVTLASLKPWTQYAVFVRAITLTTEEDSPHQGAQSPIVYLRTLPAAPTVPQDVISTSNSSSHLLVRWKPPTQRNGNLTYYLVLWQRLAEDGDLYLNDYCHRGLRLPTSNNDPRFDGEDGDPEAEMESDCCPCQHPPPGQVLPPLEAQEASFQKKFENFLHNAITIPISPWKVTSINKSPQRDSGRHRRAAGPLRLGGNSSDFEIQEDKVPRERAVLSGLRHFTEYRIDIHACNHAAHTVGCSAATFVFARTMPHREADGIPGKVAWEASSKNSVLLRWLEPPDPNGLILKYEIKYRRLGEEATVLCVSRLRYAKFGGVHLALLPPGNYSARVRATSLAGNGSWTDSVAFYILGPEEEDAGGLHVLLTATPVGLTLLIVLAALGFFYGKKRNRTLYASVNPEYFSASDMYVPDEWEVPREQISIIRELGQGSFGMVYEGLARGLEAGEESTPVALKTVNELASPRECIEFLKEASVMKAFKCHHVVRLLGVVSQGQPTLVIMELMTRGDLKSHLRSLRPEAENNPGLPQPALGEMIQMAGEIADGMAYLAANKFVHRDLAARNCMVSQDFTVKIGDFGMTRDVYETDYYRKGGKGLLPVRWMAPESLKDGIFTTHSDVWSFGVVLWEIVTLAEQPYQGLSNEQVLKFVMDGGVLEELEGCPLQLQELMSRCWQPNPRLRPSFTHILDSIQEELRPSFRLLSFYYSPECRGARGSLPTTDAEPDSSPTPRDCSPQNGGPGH
UniProt O94768, sequence (whole entry, looked up): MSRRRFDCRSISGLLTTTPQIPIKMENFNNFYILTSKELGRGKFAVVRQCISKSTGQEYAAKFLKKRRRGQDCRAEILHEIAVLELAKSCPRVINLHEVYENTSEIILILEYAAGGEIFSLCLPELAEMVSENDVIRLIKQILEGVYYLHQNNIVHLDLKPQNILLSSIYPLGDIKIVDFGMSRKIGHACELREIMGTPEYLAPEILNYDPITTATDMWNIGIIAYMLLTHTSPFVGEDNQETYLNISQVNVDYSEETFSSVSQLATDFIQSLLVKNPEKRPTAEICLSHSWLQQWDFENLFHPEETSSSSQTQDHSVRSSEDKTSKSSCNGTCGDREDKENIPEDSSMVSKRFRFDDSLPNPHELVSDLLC
UniProt Q00537, sequence (whole entry, looked up): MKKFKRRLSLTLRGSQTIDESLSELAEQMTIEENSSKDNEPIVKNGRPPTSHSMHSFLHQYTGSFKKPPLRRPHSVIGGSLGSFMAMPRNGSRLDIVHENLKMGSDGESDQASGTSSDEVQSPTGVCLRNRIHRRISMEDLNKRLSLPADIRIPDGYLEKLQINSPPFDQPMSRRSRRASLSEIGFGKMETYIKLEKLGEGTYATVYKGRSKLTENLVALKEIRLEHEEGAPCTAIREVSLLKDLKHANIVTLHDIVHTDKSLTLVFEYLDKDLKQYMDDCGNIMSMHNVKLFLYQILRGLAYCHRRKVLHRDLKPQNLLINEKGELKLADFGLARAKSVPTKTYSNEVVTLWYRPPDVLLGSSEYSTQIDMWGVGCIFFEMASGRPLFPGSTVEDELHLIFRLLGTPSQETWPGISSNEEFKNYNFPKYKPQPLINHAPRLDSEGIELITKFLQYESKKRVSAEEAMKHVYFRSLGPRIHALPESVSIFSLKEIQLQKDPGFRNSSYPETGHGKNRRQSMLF
UniProt Q9UK32, sequence (whole entry, looked up): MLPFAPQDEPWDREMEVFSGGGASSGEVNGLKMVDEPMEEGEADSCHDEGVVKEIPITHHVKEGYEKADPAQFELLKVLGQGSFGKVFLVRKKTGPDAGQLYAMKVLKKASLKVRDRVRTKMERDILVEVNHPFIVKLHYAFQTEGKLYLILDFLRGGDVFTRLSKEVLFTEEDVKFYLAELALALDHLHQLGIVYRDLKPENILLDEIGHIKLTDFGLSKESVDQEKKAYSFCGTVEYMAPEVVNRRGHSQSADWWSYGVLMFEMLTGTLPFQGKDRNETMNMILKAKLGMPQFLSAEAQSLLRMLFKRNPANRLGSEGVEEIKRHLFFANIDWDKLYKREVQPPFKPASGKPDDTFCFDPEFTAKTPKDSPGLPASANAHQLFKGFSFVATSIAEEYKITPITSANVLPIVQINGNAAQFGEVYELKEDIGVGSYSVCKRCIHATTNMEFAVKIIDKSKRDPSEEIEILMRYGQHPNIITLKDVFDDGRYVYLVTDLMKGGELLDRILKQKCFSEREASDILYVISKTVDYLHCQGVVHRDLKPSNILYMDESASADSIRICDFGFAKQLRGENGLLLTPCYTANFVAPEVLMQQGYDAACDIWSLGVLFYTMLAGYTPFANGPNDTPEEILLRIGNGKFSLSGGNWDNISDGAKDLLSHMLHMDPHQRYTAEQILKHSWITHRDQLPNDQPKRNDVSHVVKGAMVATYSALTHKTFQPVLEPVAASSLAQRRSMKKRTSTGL
UniProt Q9UQM7, sequence (whole entry, looked up): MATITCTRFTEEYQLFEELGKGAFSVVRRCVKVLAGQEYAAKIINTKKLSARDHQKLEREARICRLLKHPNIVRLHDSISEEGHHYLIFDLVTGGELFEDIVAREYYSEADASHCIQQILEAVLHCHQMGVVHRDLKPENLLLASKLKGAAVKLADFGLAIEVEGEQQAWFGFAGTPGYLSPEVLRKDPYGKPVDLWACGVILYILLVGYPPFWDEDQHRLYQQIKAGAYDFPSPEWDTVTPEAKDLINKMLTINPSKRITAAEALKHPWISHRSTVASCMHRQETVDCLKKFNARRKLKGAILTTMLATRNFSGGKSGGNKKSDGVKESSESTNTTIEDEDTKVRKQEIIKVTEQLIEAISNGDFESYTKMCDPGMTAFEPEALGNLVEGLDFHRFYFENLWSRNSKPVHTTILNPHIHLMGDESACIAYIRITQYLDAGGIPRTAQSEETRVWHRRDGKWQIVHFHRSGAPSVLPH

Series 1
Compound: CN1CCN(C(=O)c2ccc(NC(=O)Nc3ccc(N(C)c4ccnc(Nc5ccc(CS(C)(=O)=O)cc5)n4)cc3)cc2)CC1
Tested at: 1 µM
The remaining binding was 87% (EGFR (Homo sapiens, UniProt P00533, del746-750); competitive binding panel; relative to: vehicle).
It gave 77% for remaining binding (CDK4 (Homo sapiens, UniProt P11802); competitive binding scan; added: cyclin D1).
The remaining binding was 43% (LIM domain kinase 2 (LIMK2, Homo sapiens, UniProt P53671); competitive binding panel; relative to: vehicle).
CAMK1G (Homo sapiens, UniProt Q96NX5); competitive binding panel; relative to: vehicle — remaining binding: 88%.
STK17B (Homo sapiens, UniProt O94768); competitive binding panel, refers to: DRAK2; relative to: vehicle — remaining binding: 100%.
It gave 100% for remaining binding (PHKG1 (Homo sapiens, UniProt Q16816); competitive binding panel; relative to: vehicle).
For INSRR (Homo sapiens, UniProt P14616); competitive binding panel; relative to: vehicle: remaining binding read 100%.
RIPK4 (Homo sapiens, UniProt P57078); competitive binding panel; relative to: vehicle — remaining binding: 57%.
It gave 57% for remaining binding (FGR (Homo sapiens, UniProt P09769); competitive binding panel; relative to: vehicle).
For MAP3K3 (Homo sapiens, UniProt Q99759); competitive binding panel; relative to: vehicle: remaining binding read 57%.
For WNK2 (Homo sapiens, UniProt Q9Y3S1); competitive binding panel; relative to: vehicle: remaining binding read 67%.
The remaining binding was 83% (CSNK2A1 (Homo sapiens, UniProt P68400); competitive binding panel; relative to: vehicle).
The remaining binding was 15% (STK16 (Homo sapiens, UniProt O75716); competitive binding panel; relative to: vehicle).
For RET (Homo sapiens, UniProt P07949); competitive binding panel; relative to: vehicle: remaining binding read 0%.

Series 2
Compound: C=CC(=O)N1CCC[C@@H](n2nc(-c3ccc(Oc4ccccc4)cc3)c3c(N)ncnc32)C1
Mode: inhibitor
Tested at: 1 µM
It gave 99% for inhibition (CDPK1 (Plasmodium falciparum, UniProt P62344); enzyme activity).
It gave 10% for inhibition (PRKCE (Homo sapiens, UniProt Q02156)).
NTRK3 (Homo sapiens, UniProt Q16288); enzyme activity — inhibition: 17%.
For CAMK2A (Homo sapiens, UniProt Q9UQM7); enzyme activity: inhibition read 4%.
The inhibition was 13% (PRKCH (Homo sapiens, UniProt P24723)).
Tyrosine-protein kinase ABL1, phosphorylated (ABL1, Homo sapiens, UniProt P00519, M351T) — inhibition: 34%.
The inhibition was 26% (IRAK3 (Homo sapiens, UniProt Q9Y616)).
The inhibition was 3% (CDK17 (Homo sapiens, UniProt Q00537); enzyme activity).
The inhibition was 22% (Ribosomal protein S6 kinase alpha-6, C-terminal kinase domain (RPS6KA6, Homo sapiens, UniProt Q9UK32)).

Series 3
Target: Cyclin-dependent kinase 2, with cyclin A (CDK2, Homo sapiens, UniProt P24941)
Read-out: enzyme activity
Mode: inhibitor
Tested at: 0.5 µM
Relative to: control
The remaining activity of `COc1ccc(CNC(=O)Nc2ncc([N+](=O)[O-])s2)cc1` is reported as 93.3%.
For `O=C1NC(=O)C(c2cn(CCCn3ccnc3)c3ccccc23)=C1Nc1ccccc1`, the remaining activity was 83.4%.
`Cc1cccc(-c2[nH]c(C(C)(C)C)nc2-c2ccc3c(c2)OCO3)n1` gave a remaining activity of 117%.
`Cc1nc(-c2ccccc2)c(-c2ccncc2)o1` gave a remaining activity of 104%.
`CN(C)c1ccc(C=C2C(=O)Nc3ccccc32)cc1` has a remaining activity of 102%.
For `Cn1c2ccccc2c2c3c(c4c5ccccc5n(CCC#N)c4c21)CNC3=O`, the remaining activity was 20.8%.
The remaining activity of `N#CC(C#N)=C(N)/C(C#N)=C/c1ccc(O)cc1` is reported as 97.9%.
With `O=C(Nc1cccc(Nc2cc(Nc3cccc(C(F)(F)F)c3)ncn2)c1)C1CC1` the remaining activity was 99.5%.
`Oc1ccc(-c2nc(-c3ccncc3)c(-c3ccc(F)cc3)[nH]2)cc1` has a remaining activity of 101%.
`Nc1ncnc2n[nH]c(Nc3ccc(F)cc3)c12` has a remaining activity of 88.7%.
The remaining activity of `CCOC(=O)c1c(C)[nH]c(/C=C2\C(=O)Nc3ccccc32)c1C` is reported as 94.5%.
`OCC(O)CCON=C1C(c2c(O)[nH]c3ccccc23)=Nc2ccccc21` (stereo not shown) has a remaining activity of 15.5%.
For `COc1ccc(C(=O)Nc2sc3c(c2C(N)=O)CCCC3)cc1OC`, the remaining activity was 103%.
For `Nc1[nH]nc2nc3ccccc3nc12`, the remaining activity was 86.2%.
`O=c1c2ccccc2[nH]c(=S)n1CCN1CCC(=C(c2ccc(F)cc2)c2ccc(F)cc2)CC1` has a remaining activity of 99.9%.

Series 4
Target: Sigma intracellular receptor 2 (TMEM97, Homo sapiens, UniProt Q5BJF2)
UniProt Q5BJF2, sequence (whole entry, looked up): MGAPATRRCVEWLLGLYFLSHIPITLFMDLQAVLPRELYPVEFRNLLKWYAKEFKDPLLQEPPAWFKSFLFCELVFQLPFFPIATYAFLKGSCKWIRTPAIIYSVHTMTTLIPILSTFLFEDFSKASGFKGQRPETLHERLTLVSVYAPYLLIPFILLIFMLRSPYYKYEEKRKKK
Read-out: binding
Method: radioligand binding
Tested at: 10 µM
For `O=C(Nc1cccnn1)N1CC(CC=Cc2cncc(Oc3ccc(C(F)(F)F)cn3)n2)C1`, the inhibition was 69%.
With `CS(=O)(=O)NCC[C@H](NC(=O)c1cncc2c1cnn2-c1ccc(F)cc1)c1ccnc(S(C)(=O)=O)c1` the inhibition was -1.85%.
With `Cc1nc(Cc2cccc(C(F)(F)F)c2)sc1-c1ccc(C(N)=O)nc1` the inhibition was -8.52%.
`CC(=O)c1c(NS(C)(=O)=O)c2cc(-c3ccc(Cl)cc3)c(-c3ccc(Cl)cc3Cl)nc2n(C)c1=O` gave an inhibition of 17.6%.
`CCOCCn1cc(C(=O)Nc2ccc(-n3nc(-c4cccnc4)cc3C(F)(F)F)cn2)ccc1=O` gave an inhibition of -2.98%.
`CN1CCN(C(=O)C(C)(C)c2ccc(C(=O)Nc3cn4cc(-c5ccncc5)ccc4n3)cc2)CC1` has an inhibition of 13.4%.
The inhibition of `Cc1cc(C)c(-n2ccn3nc(-c4cccnc4)cc23)cc1NC(=O)c1cc(C#N)cc(S(F)(F)(F)(F)F)c1` is reported as 64.4%.
With `CN([C@@H]1CCc2c(CC(=O)O)c3cc(S(C)(=O)=O)ccc3n2C1)S(=O)(=O)c1ccc(F)cc1` the inhibition was -9.3%.
With `Nc1c(C(=O)NCc2ccc(C(=O)NCCCC3CCCCC3)cc2)cnn1-c1ccccc1` the inhibition was 45.3%.
The inhibition of `C[C@@H]1CN(c2cc(-c3nn(C)c4ccc(OC5(C)CC5)cc34)ncn2)C[C@H](C)O1` is reported as 90.4%.
`O=C1CCc2cc(Nc3cc(OC4CCOCC4)c([N+](=O)[O-])cc3Cl)ccc2N1` has an inhibition of 27.1%.
The inhibition of `Cc1nccc(COC(=O)N2C[C@@H]3[C@@H](CNC(=O)c4ccc5[nH]nnc5c4)[C@@H]3C2)n1` is reported as -2.9%.
For `CC1=C(C#N)[C@@H](c2ccc3[nH]nc(C)c3c2)C(C#N)=C(c2ccc(Cl)cc2)N1`, the inhibition was 23.4%.
`COc1cc(-c2cn(C3CCc4ccccc4N(CC(F)(F)F)C3=O)nn2)ccc1-n1ccc(C)n1` (stereo not shown) gave an inhibition of 72%.

Some of these lines once more (series 3):
For `O=C1NC(=O)C(c2cn(CCCn3ccnc3)c3ccccc23)=C1Nc1ccccc1`, the remaining activity was 83.4%.
`O=c1c2ccccc2[nH]c(=S)n1CCN1CCC(=C(c2ccc(F)cc2)c2ccc(F)cc2)CC1` has a remaining activity of 99.9%.
The remaining activity of `CCOC(=O)c1c(C)[nH]c(/C=C2\C(=O)Nc3ccccc32)c1C` is reported as 94.5%.
The remaining activity of `COc1ccc(CNC(=O)Nc2ncc([N+](=O)[O-])s2)cc1` is reported as 93.3%.
`Cc1nc(-c2ccccc2)c(-c2ccncc2)o1` gave a remaining activity of 104%.
The remaining activity of `N#CC(C#N)=C(N)/C(C#N)=C/c1ccc(O)cc1` is reported as 97.9%.
For `COc1ccc(C(=O)Nc2sc3c(c2C(N)=O)CCCC3)cc1OC`, the remaining activity was 103%.
